Published values pooled from the literature.
Numbered parts are unrelated; each lists some results of a single study.
Sequence of UniProt O00571 (132-607, looked up): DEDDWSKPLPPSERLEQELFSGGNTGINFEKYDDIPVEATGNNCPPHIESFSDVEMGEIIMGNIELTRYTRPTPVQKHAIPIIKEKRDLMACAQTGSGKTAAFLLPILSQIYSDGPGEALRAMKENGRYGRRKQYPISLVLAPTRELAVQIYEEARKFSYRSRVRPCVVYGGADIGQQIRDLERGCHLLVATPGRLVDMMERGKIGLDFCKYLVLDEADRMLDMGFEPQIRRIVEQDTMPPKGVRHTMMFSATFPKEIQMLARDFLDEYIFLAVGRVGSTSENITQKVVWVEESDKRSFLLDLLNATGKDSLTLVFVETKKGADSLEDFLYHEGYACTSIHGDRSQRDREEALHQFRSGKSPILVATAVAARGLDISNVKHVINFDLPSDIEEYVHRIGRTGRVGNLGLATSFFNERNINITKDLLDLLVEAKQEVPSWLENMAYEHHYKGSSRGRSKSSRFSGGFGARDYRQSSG

Set 1
Target: PABPC1L2, full length, GST fusion (mouse, UniProt A0ABA7IW68)
Technique: RNAcompete
Form: RNA
Medium: in vitro
Tested at: 20 nM
Notes: 7-mer, probes averaged, single round
Baseline: mean of 7-mers
Direction: higher = stronger binding
Quantity: 7-mer Z-score
Residues (chain): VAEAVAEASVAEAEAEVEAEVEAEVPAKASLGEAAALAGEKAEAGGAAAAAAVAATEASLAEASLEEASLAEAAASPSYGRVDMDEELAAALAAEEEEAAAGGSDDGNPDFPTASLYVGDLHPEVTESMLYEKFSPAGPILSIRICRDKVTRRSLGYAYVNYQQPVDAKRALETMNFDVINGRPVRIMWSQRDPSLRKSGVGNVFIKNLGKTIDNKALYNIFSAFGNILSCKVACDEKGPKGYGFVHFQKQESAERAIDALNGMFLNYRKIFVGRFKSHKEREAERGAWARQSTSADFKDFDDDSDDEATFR
GCGUAUA: -0.204
UCGUCCC: -0.498
CAAUGGA: 0.0787
AAGCAAC: 0.166
UGGGGUC: 0.046
UACGAGC: 0.0225
UUACGCU: -0.353
UACAGCU: -0.222

Set 2
Target: Replicase polyprotein 1ab, main protease (rep, Severe acute respiratory syndrome coronavirus 2, UniProt P0DTD1)
Effect on: enzyme activity
Action: inhibitor
Tested at: 20 µM
Notes: hit confirmation, no DTT
Quantity: inhibition
O=NN(CCCl)C(=O)NC1CCCCC1: 52.5%
CN(C)C(=S)SSC(=S)N(C)C: 99.9%
N#CSc1cc(SC#N)c(N)nc1N: 98.8%
Oc1c(I)cc(I)c(O)c1I: 98.9%

Set 3
Cell line: HEK-293T/ACE2
Tested at: concentration not given
Time: 16 (unit not given)
Baseline: vehicle
Quantity: viability
Cc1ccnc2c1NC(=O)c1cccnc1N2C1CC1: 102%
COc1cc(C(=O)NS(=O)(=O)c2ccccc2C)ccc1Cc1cn(C)c2ccc(NC(=O)OC3CCCC3)cc12: 99.6%
COc1ccc(C(CN(C)C)C2(O)CCCCC2)cc1 (stereo not drawn): 103%
Cc1onc(-c2ccccc2)c1-c1ccc(S(N)(=O)=O)cc1: 104%

Set 4
Target: Centromere-binding protein 1, full length, N-terminal tag (CBF1, Saccharomyces cerevisiae, UniProt P17106, residues 1-351)
Sequence of UniProt P17106 (whole entry, looked up): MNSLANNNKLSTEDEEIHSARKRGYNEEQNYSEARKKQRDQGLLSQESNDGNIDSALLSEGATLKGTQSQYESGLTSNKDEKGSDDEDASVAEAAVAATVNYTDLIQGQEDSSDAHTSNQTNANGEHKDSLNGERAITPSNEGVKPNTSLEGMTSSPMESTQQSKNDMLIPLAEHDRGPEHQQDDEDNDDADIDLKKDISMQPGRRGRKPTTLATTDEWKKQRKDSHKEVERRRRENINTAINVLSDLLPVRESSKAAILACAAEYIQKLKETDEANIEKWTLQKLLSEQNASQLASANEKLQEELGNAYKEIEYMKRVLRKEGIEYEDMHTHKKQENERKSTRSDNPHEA
Technique: protein-binding microarray
Form: double-stranded DNA, one strand shown
Medium: in vitro
Tested at: 0.8 µM
Notes: whole 60-bp probe, no competitor
Direction: higher = stronger binding
Quantity: fluorescence intensity
Shared flanks, not repeated: … GTCTTGATTCGCTTGACGCTGCTG
GAATGCCTACGAAGGCACATGACAATCACGTAATAG: 1320 a.u.
GAATCCGGCCATAGTAACACCACGCAAGGTAACTAG: 522 a.u.
CTAACGAAACTACCCCACGTTTCAAGTTTTGCTTTC: 557 a.u.
GAATGGTTGAATAATCATGAGAAGTACATCAATTAG: 515 a.u.
GAAAAACCTGCAATACTCGTGATGAATATTTAATAG: 1190 a.u.
CTATTCTCTATAGGCATCACCATTGAAAAGTATTTC: 563 a.u.
TGTACGAAGCTATGTCTCATGATTATAGTAGTTAGG: 612 a.u.
GAATATCATTTCTAGCGTGCGTTAGTGTTATTATAG: 511 a.u.

Set 5
Oligonucleotide: GGUA
Technique: RNA Bind-n-Seq
Form: RNA
Medium: in vitro
Notes: 4-mer, random 30-nt RNA, single round
Baseline: input library
Direction: higher = stronger binding
Quantity: 4-mer enrichment
EIF4A1: Eukaryotic initiation factor 4A-I (EIF4A1, Homo sapiens, UniProt P60842, residues 1-406, full length assumed)
Sequence of UniProt P60842 (whole entry, looked up): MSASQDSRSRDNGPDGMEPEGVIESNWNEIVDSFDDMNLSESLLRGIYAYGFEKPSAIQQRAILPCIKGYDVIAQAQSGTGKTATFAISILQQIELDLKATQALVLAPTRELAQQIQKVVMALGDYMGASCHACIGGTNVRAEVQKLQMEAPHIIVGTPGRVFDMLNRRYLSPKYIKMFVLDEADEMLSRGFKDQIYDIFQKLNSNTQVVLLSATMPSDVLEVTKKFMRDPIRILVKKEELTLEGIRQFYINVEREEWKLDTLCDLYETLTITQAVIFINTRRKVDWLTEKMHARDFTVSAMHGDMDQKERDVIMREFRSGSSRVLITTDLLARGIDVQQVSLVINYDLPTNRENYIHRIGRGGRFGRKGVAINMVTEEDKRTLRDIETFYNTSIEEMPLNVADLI
ATP-dependent RNA helicase DDX3X, helicase core (DDX3X, Homo sapiens, UniProt O00571, residues 132-607); not given, together with: RocA, ADP, phosphate: 1.05 fold
EIF4A1; not given, together with: RocA, ADP, phosphate: 0.985 fold
EIF4A1; 15 pmol, together with: DMSO vehicle, 2 mM AMP-PNP: 0.778 fold
EIF4A1; 90 pmol, together with: 3 µM DMDA-PatA, 2 mM ADP, 2 mM phosphate: 0.997 fold
EIF4A1; 90 pmol, together with: 3 µM iPr-DMDA-PatA, 2 mM ADP, 2 mM phosphate: 0.904 fold

Set 6
Target: Replicase polyprotein 1ab, nsp13 helicase (rep, Severe acute respiratory syndrome coronavirus 2, UniProt P0DTD1)
Action: inhibitor
Tested at: 20 µM
Quantity: inhibition
O=c1oc(-c2ccc(C(F)(F)F)cc2)nn1Cc1cc(Cl)ccc1O: -1.38%
CN(C)CCCC(=O)Nc1ccc(C(=O)Nc2cccc(Nc3ncc(Cl)c(-c4c[nH]c5ccccc45)n3)c2)cc1: -0.29%
O=C(O)[C@H](O)[C@H](O)[C@@H](O)[C@H](O)[C@H](O)CO: -4.84%
CC(C)(C)NCC(O)COc1cccc2c1C[C@H](O)[C@H](O)C2 (mixture of isomers): 3.8%
COc1cccc2c1C(=O)c1c(O)c3c(c(O)c1C2=O)C[C@@](O)(C(=O)CO)C[C@@H]3O[C@H]1C[C@H](N)[C@H](O)[C@H](C)O1: 93%
Cc1oc(=O)oc1COC(=O)C1=C([C@H]2CCCO2)S[C@@H]2[C@@H]([C@@H](C)O)C(=O)N12: 2.43%
CN1CCN(CCc2ccc(Cl)c(Cl)c2)CC1: 3.37%
CC(C)NCC(O)c1ccc(O)c(O)c1 (stereo not drawn): 0.01%
COc1ncc(-c2ccc3nccc(-c4ccnnc4)c3c2)cc1NS(=O)(=O)c1ccc(F)cc1F: 12.5%
CNC(C)CC1CCCCC1 (stereo not drawn): 4.24%
CNS(=O)(=O)Cc1ccc2[nH]cc(CCN(C)C)c2c1: 6.61%
C=C1[C@@H](C)[C@H]2[C@H](Cc3ccccc3)NC(=O)[C@]23OC(=O)/C=C/[C@H](O)CCC[C@@H](C)C/C=C/[C@H]3[C@@H]1O: 1.51%
C#C[C@]1(OC(C)=O)CC[C@H]2[C@@H]3CCC4=C[C@@H](OC(C)=O)CC[C@@H]4[C@H]3CC[C@@]21C: 0.24%
c1cc(-c2cnn3cc(-c4ccc(OCCN5CCCCC5)cc4)cnc23)ccn1: 23.3%
OC[C@H]1O[C@@H](n2cnc3c2N=CNC[C@H]3O)C[C@@H]1O: -1.06%
CC(C)Oc1ccc(C(=O)N[C@H](CNC(=O)CN(C)C)Cc2ccc(-c3cn4cccc([C@H](C)O)c4n3)cc2)cc1Cl: 1.36%
[N-]=[N+]=N[C@]1(CO)O[C@@H](n2ccc(N)nc2=O)[C@@H](O)[C@@H]1O: -0.36%
FC(F)(F)c1ccc(/C=C/c2nc(COc3ccc(CCCCn4ccnn4)cc3)co2)cc1: 4.95%
C[C@H](N)Cc1cnc[nH]1: -0.71%
CCCCc1nc(Cl)c(C(=O)O)n1Cc1ccc(-c2ccccc2-c2nn[nH]n2)cc1: 0.03%
COc1cccc(-c2cc(NCc3ccc4c(c3)OCO4)nc(N)n2)c1: 4.82%
C=CC(=O)Nc1cccc(Oc2nc(Nc3ccc(N4CCN(C)CC4)cc3)nc3ccsc23)c1: 56.3%
O=C(NCc1ccccc1)OCCO: 12.4%
NC(=O)C(c1ccccc1)(c1ccc(F)cc1)c1ccc(F)cc1: 2.69%
COc1ccc(C(=O)c2ccccc2)c(O)c1: 4.15%

Excerpt of the above (set 6):
CCCCc1nc(Cl)c(C(=O)O)n1Cc1ccc(-c2ccccc2-c2nn[nH]n2)cc1: 0.03%
COc1cccc(-c2cc(NCc3ccc4c(c3)OCO4)nc(N)n2)c1: 4.82%
C=CC(=O)Nc1cccc(Oc2nc(Nc3ccc(N4CCN(C)CC4)cc3)nc3ccsc23)c1: 56.3%
